Measured values from different studies.
Numbered parts are unrelated; each lists some results of a single study. Positions count from the first letter of the parent shown.

Sample 1
Target: CREB3L3, bZIP domain (human)
Method: DHFR protein complementation
Sample: yeast
Notes: single substitutions, most at no-binding floor
Relative to: wild-type JUN-FOS pair
Direction: higher = stronger binding
Starting sequence: JUN, bZIP domain (human); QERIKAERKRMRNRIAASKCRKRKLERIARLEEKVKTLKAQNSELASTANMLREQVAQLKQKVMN; partner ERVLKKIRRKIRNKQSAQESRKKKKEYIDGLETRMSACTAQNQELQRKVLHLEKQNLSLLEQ
`E33Q` gave a binding fitness of -1.36 natural log.
With `A46P` the binding fitness was -1.52 natural log.
With `T48K` the binding fitness was -1.54 natural log.
`N42I` gave a binding fitness of -1.4 natural log.
With `E32D` the binding fitness was -1.29 natural log.
For `R30K`, the binding fitness was -1.37 natural log.
With `N42G` the binding fitness was -1.46 natural log.
For `R53N`, the binding fitness was -1.53 natural log.

Sample 2
Target: Centromere-binding protein 1, full length, His-tagged (CBF1, Saccharomyces cerevisiae, UniProt P17106, residues 1-351)
UniProt P17106, sequence (whole entry, looked up): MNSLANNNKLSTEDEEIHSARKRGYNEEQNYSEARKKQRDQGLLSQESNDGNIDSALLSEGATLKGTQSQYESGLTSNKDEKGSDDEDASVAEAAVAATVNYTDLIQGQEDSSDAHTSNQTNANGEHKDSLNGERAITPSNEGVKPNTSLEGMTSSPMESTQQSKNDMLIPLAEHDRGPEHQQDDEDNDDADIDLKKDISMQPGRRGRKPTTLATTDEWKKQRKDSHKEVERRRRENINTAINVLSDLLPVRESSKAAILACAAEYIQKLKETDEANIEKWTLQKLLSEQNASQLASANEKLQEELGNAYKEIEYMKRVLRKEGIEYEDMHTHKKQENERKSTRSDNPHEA
Method: competition protein-binding microarray
Molecule type: double-stranded DNA, one strand shown
Sample: in vitro
Tested at: 2 µM
Notes: whole 60-bp probe, lowest competitor level
Together with: Pho4 competitor, 0.05 µM
Direction: higher = stronger binding
Constant ends, left off below: … GTCTTGATTCGCTTGACGCTGCTG
`GTGAGCGAAGAGGTTAATGATATCTTCGATTATTTG` gave a fluorescence intensity of 92.4 a.u.
The fluorescence intensity of `CTTGAAACTCCTCCACGCGTGCTTTTTCTTGTTCAG` is reported as 97 a.u.
`TTAACGGGAAGGCGCGTCGTGATGGTCTCGCGCTTT` gave a fluorescence intensity of 61.9 a.u.
With `CTGCTTTCGTTTCGCCAGGTGATTCTGTTGCCATTA` the fluorescence intensity was 88.7 a.u.
`AAAAGTTTCCCTTCTCACGTGTCCATAAAGCATCAA` has a fluorescence intensity of 2400 a.u.
The fluorescence intensity of `GACTTATCGTCTGAAGTCGTGGGACAAATGGATGCC` is reported as 78.8 a.u.
`CGTCCTAGTGATTGCAGCGTGGGTGCCATGAGGAAG` has a fluorescence intensity of 74.1 a.u.
With `CTTTCCCGATCTTGTCACCGCACTTTAGCACATTTG` the fluorescence intensity was 73.9 a.u.

Mixed results
P1: viral docking peptide; KGVKRKLFAEDSS; partner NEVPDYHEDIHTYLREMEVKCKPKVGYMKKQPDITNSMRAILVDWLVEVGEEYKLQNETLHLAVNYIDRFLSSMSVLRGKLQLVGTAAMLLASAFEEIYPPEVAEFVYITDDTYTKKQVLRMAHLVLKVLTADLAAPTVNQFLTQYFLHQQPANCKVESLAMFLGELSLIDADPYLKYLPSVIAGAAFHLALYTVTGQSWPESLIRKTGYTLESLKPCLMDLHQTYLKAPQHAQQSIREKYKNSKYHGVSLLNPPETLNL
Under “normalised enrichment score”, `P1 A9W` is recorded as 6.12 (CCNA2, cyclin fold, Cln2 fusion (human); yeast growth competition, sequencing; yeast; strong parent motif; relative to: not given, higher = stronger binding).
The fold induction of `PhoQ, residues 284 288 289 292 302 303 ALASRC` is reported as 0.823 (PhoP, residues 12 14 15 18 19 TPLRH (Escherichia coli, UniProt P23836); Sort-seq, measured: YFP reporter; E. coli; PhoQ-PhoP variant library, together with: 10 µM Mg2+; relative to: high Mg2+ state, higher = stronger signaling).

Repeated from above (sample 1):
With `T48K` the binding fitness was -1.54 natural log.
`N42I` gave a binding fitness of -1.4 natural log.
